# Published values gathered from unrelated publications.
# Lines come from different studies, so protocols differ.
# Organism: Leishmania infantum
# Effect on: parasite growth
SMILES,technique,cells,strain,time,notes,IC50
O=[N+]([O-])/C=C/c1ccc(Br)o1,,,,72 h,promastigote,1.1 µM
CCOC(=O)c1csc(NN=Cc2ccccc2[N+](=O)[O-])n1,,,,72 h,promastigote,159 µM
O=C(Nc1ccc2c(c1)CN(c1ccccc1)C2=O)N1CC[C@H](O)C1,Giemsa stain,primary peritoneal mouse macrophages,MHOM/MA(BE)/67 amastigotes,5 d,,> 64 µM
CCOC(=O)c1cn(CC(c2c[nH]c3cc(Br)ccc23)c2c[nH]c3cc(Br)ccc23)c(C)c1C(=O)OC,MTS,,,72 h,promastigote,6.6 µM
O=C(Nc1ccc2c(c1)CN(c1ccc(Cl)c(Cl)c1)C2=O)N1CCN(c2ccc(Cl)cc2)CC1,Giemsa stain,primary peritoneal mouse macrophages,MHOM/MA(BE)/67 amastigotes,5 d,,> 64 µM
CCOC(=O)c1c(C(=O)OC)cn(CC(c2cn(C)c3ccccc23)c2cn(C)c3ccccc23)c1C,MTS,,,72 h,promastigote,3.7 µM
O=C(Nc1ccc2c(c1)CN(c1ccc(F)c(F)c1)C2=O)N1CCN(c2ccc(F)cc2)CC1,imaging,,,,"intracellular, amastigote",12.7 µM
NNc1nnc(NN)c2ccccc12,MTT,,,72 h,promastigote,> 25 µM
C/C(=C\c1ccco1)[N+](=O)[O-],,,,72 h,promastigote,2 µM
CCCCCc1cn(CCCCCCCCCCCOP(=O)([O-])OCC[N+](C)(C)C)nn1,,THP-1,,24 h,"intracellular, amastigote",6.6 µM

# Repeated from above:
SMILES,technique,cells,strain,time,notes,IC50
O=C(Nc1ccc2c(c1)CN(c1ccc(F)c(F)c1)C2=O)N1CCN(c2ccc(F)cc2)CC1,imaging,,,,"intracellular, amastigote",12.7 µM
